Measurements from different studies.
Protocols differ between the studies behind these lines. Several values in a cell are separate wells, animals, samples, runs or records. ± gives the spread as reported.

Under “serum protein fraction”, `O=C(O)CCCOc1ccc(F)cc1-c1cc(-c2ccccc2C(F)(F)F)n(-c2ccccc2)n1` is recorded as 8.4 ± 0.6% (measured: α2-glb; Crl:CD(SD) rats, female, serum; iv, 25 µg/kg, 1 day).
`C=CCNc1c(O)cc2c(O)c1C[C@@H](C)C[C@H](OC)[C@H](O)[C@@H](C)/C=C(\C)[C@H](OC(N)=O)[C@@H](OC)/C=C\C=C(/C)C(=O)N2` — result for “treatment-emergent adverse events”: 33% (measured: first-degree AV block; patients with unresectable or metastatic GIST, STS or other tumours; intravenous, 300 mg/m^2).
`CN(C(=O)n1cnc(-c2ccc[n+]([O-])c2)c1)C1CCCCC1` has a concentration of 88 ± 36.8 ng/g (Wistar rat, cerebellum; oral, 10 mg/kg/day, 4 h, repeated 5 days).
The Vd of `CC(=O)c1c(C)c2cnc(Nc3ccc(C4CCN(CCS(C)(=O)=O)CC4)cn3)nc2n(C2CCCC2)c1=O` is reported as 745 L (human, plasma; oral, 100 mg, day 1 single dose).
`O=C(c1ccc(F)c(F)c1Nc1ccc(I)cc1F)N1CC(O)([C@@H]2CCCCN2)C1` — result for “AE causing dose modification”: 25% (human patients; oral, 1 mg/kg, dose expansion).
`NCCCC[C@@H]1NC(=O)[C@@H](Cc2c[nH]c3ccccc23)NC(=O)[C@H](c2ccccc2)NC(=O)[C@@H]2C[C@@H](OC(=O)NCCN)CN2C(=O)[C@H](Cc2ccccc2)NC(=O)[C@H](Cc2ccc(OCc3ccccc3)cc2)NC1=O` — result for “subjects with dry mouth”: 0% (healthy human volunteers; 600 µg twice daily).
The diarrhoea incidence of `CO[C@H]1C[C@@H]2CC[C@@H](C)[C@@](O)(O2)C(=O)C(=O)N2CCCC[C@H]2C(=O)O[C@H]([C@H](C)C[C@@H]2CC[C@@H](OC(=O)NCCOCCOCCOCCOCCOCCOCCOCCOCCC(=O)N3CCc4cc(Cn5nc(-c6ccc7oc(N)nc7c6)c6c(N)ncnc65)ccc4C3)[C@H](OC)C2)C[C@@H](O)[C@H](C)/C=C(\C)[C@@H](O)[C@@H](OC)C(=O)[C@H](C)C[C@H](C)/C=C/C=C/C=C/1C` is reported as 0% (patients with advanced solid tumours; intravenous, 10 mg weekly, grade 3 or higher).
For `CCN1CCN(Cc2ccc(Nc3ncc(F)c(-c4cc(F)c5nc6n(c5c4)[C@H](C)CCC6)n3)nc2)CC1`, “Vomiting incidence, any grade” read 41.7% (advanced solid tumour patients; dose not given, Phase Ia monotherapy).
For `C=CC(=O)N1CC[C@H](n2nc(C#Cc3cc(OC)cc(OC)c3)c3c(N)ncnc32)C1`, “adverse drug reaction incidence” read 12.5% (patients with advanced solid tumours; oral, dose not given, Malaise, any grade, QD, together with: phosphate-binding therapy).
`COc1cc2c(cc1OC)CN(CCc1ccc(NC(=O)c3cccc4c(=O)c5cccc(OC)c5[nH]c34)cc1)CC2` gave a half-life of 571 min (CD-1 mouse, male, lung; intraperitoneal, 10 mg/kg).
Under “patients with TEAE”, `C[C@@H]1OC(=O)NN=C1c1ccc(-c2ccc(F)cc2)c(C(F)(F)F)c1` is recorded as 20% (phase I, first in human, measured: blood alkaline phosphatase increased; human; concentration not given, worst grade 1, all doses).
For `O=S(=O)(Nc1ccccc1)c1ccc(NC(=S)Nc2ccccc2)cc1`, “blood cell fraction” read 11.7% (measured: NE%; female mouse, blood; oral, 20 mg/kg daily, 14 days).
Under “daily dermal exposure dose”, `CC(C)(C)c1cc(-n2nc3ccccc3n2)c(O)c(C(C)(C)C)c1` is recorded as 3.21 ng/kg/day (human aged 16-21 years; concentration not given, foundation, 95th percentile).
For `COc1ccc(C[C@@H]2NC(=O)[C@H]([C@@H](C)O)NC(=O)[C@@H]3[C@@H]4CCN3C(=O)[C@@H]3Cc5cn(c6ccc(F)cc56)CCCCCCN(Cc5ccc(cc5)CCNC(=O)[C@]5(C)CCCN5C2=O)C(=O)CCC(=O)N[C@@H](C)C(=O)N[C@H](CNC(=O)CCCCC[N+](C)(C)C)C(=O)N[C@@H](Cc2cccc(c2)CNC(=O)CO4)C(=O)N3)cc1`, “participants with adverse event” read 2% (measured: ligament sprain; human; dose not given).
For `CCc1ccc(CC/C=C/c2ccc3c(c2)C(=O)CC3)cc1`, the Neutrophil percentage was 13.5% (Sprague-Dawley rat, female; oral, 30 mg/kg/day, 14 days).
The hemoglobin of `CN1CCN(S(=O)(=O)c2cc([N+](=O)[O-])ccc2N(CCOS(C)(=O)=O)CCOS(C)(=O)=O)CC1` is reported as 166 g/L and 150 g/L and 148 g/L (NOD/SCID mouse, naive, blood; intraperitoneal, 6.3 mg/kg, week 2).
`Clc1ccc(-c2ccccc2)cc1` has an alanine aminotransferase of 41 ± 4 U/L (Sprague-Dawley rat, female, serum; inhalation, 35 µg/rat, 24 h).
For `COc1ccc2c(c1)CN(C(=O)CCN1CCC(Cc3ccccc3)CC1)CC[S@@+]2[O-]`, the QTcF was 284 ± 9 ms (female beagle dogs, chronic AV block; intravenous, 3 mg/kg, 4 h).
`COc1ccc(-c2c(-c3ccc(C#N)c(F)c3)nc(N3CCC(N)CC3)n(C)c2=O)cc1F` — result for “grade 3-4 TRAE incidence”: 0% (measured: maculo-papular rash; neuroendocrine neoplasm patients; oral, 60 mg, dose expansion).
`CC1(C)C(=O)N(c2ccc(C#N)c(C(F)(F)F)c2)C(=S)N1c1ccc(C(N)=O)c(F)c1` — result for “peripheral volume of distribution”: 52.4 L (population PK final model; human; dose not given).
`O=C(Nc1ccccc1)C1CCN(C(=O)Oc2cccnc2)CC1`: “adverse event Fatigue” 21.4% (healthy women; oral, 60 mg, 7 days).
Under “patients with macular oedema”, `O=C1Nc2cc3[nH]nc(-c4ccncc4)c3cc2CN1Cc1ccccc1` is recorded as 0% (CTCAE v4.03; advanced solid tumour patients; intravenous, 3.6 mg/kg).
`[Cl][212Pb][Cl]` has a tissue uptake of 2.05 ± 0.3 %ID/g (athymic mice, C4-2 xenograft, large intestine; intravenous, 2 h, 212Pb-labelled).
For `C[C@]1(O)C[C@@](N)(c2ccc(-c3nc4n(c3-c3ccccc3)COc3ccncc3-4)cc2)C1`, “patients with Hyperphosphatemia TEAE” read 0% (human, advanced or metastatic solid tumours; 16 mg once daily, phase I dose escalation).
Under “drug-related Acne incidence”, `C[C@]1(CO)Cc2ncn(-c3ccc(C#N)c(Cl)c3)c2C(=O)O1` is recorded as 0% (Japanese subjects; dose not given, all doses total).
`COc1cc2c(Oc3ccc4[nH]c(C)cc4c3F)ccnc2cc1OCC1(N)CC1`: “grade 1 or 2 Headache” 20% (paediatric recurrent refractory sarcoma; 8 mg/kg).
For `C=C(CN(C(=O)c1c(C(F)F)nn(C)c1F)C1CC1)c1ccc(Cl)cc1Cl`, the mortality was 0% (static acute toxicity test; zebrafish (Brachydanio rerio); 0.578 mg a.i./L, 6 h).
For `CN1CC[C@@H](c2c(O)cc(O)c3c(=O)cc(-c4ccc(C(F)(F)F)cc4Cl)oc23)[C@@H]1CO`, “patients with adverse event” read 100% (measured: Nausea; B-cell malignancies; oral, 200 mg, intermittent dosing).
Under CSF concentration, `OCCc1ccc(O)c(O)c1` is recorded as “not detected” (human CSF; concentration not given, mean).
`O.O.O.O.O.O.[Cl-].[Cl-].[Co+2]`: “urinary cobalt creatinine-corrected” 1.21 µg/µmol creatinine (rat male, urine; oral, 10 mg/kg single, day 1).
The drug concentration of `COc1ncccc1-c1cnn2ccc(N3CCN(C(=O)OC(C)C)CC3)nc12` is reported as 10.3 µM (rat, rotarod test, brain; 60 mg/kg, 180 min).
With `O=C(Nc1cccnn1)N1CCC(=Cc2cccc(Oc3ccc(C(F)(F)F)cn3)c2)CC1` the concentration was 31.2 ± 2.4 nM (culture medium without cells; 100 nM, 3 h).
Under “AUC at NOAEL”, `C[C@H]1CN(C(=O)CC#N)[C@]12CCN(c1ncnc3[nH]ccc13)C2` is recorded as 9900 ng·h/mL (dog, male; oral, 3 mg/kg repeated, 3 months).
Under “remaining intact peptide”, `CC[C@H](C)[C@H](NC(=O)[C@H](CCCCN)NC(=O)[C@H](CCC(=O)O)NC(=O)[C@H](CCCCN)NC(=O)[C@H](CO)NC(=O)[C@H](CCCCN)NC(=O)[C@H](CCCNC(=N)N)NC(=O)[C@H](Cc1ccccc1)NC(=O)[C@H](Cc1ccccc1)NC(=O)[C@H](CC(=O)O)NC(=O)CNC(=O)[C@H](CC(C)C)NC(=O)[C@@H](N)CC(C)C)C(=O)NCC(=O)N[C@@H](CCCCN)C(=O)N[C@@H](CCC(=O)O)C(=O)N[C@@H](Cc1ccccc1)C(=O)N[C@@H](CCCCN)C(=O)N[C@@H](CCCNC(=N)N)C(=O)N[C@H](C(=O)N[C@H](C(=O)N[C@@H](CCC(N)=O)C(=O)N[C@@H](CCCNC(=N)N)C(=O)N[C@H](C(=O)N[C@@H](CCCCN)C(=O)N[C@@H](CC(=O)O)C(=O)N[C@@H](Cc1ccccc1)C(=O)N[C@@H](CC(C)C)C(=O)N[C@@H](CCCNC(=N)N)C(=O)N[C@@H](CC(N)=O)C(=O)N[C@@H](CC(C)C)C(=O)N[C@H](C(=O)N1CCC[C@H]1C(=O)N[C@@H](CCCNC(=N)N)C(=O)N[C@H](C(=O)N[C@@H](CCC(=O)O)C(=O)N[C@@H](CO)C(=O)O)[C@@H](C)O)C(C)C)[C@@H](C)CC)C(C)C)[C@@H](C)CC` is recorded as 5.05% and 4.55% and 6.97% (LC-MS; 50% pooled human serum; 40 µM, 30 min, pH 7.5, 37 °C; reference: 0 h).
`C/C(=N\C#N)N(C)Cc1ccc(Cl)nc1` gave a concentration of 0.65 mg/kg dry soil (soil; 0 days, nominal 1.1).
`O[C@H]1CCCN[C@@H]1CCCn1cnc2c(Cl)c(Cl)ccc21`: “Cmax geometric LS mean” 221 ng/mL (healthy CYP2D6 EM and UM, plasma; oral, dose not given, together with: pirfenidone).
Under “all-cause adverse events”, `Cc1cccc(Cn2nc(C3CC3)c3c(NC(=O)c4cnc5cc(OCCN6CCN(C)CC6)ccn45)cccc32)n1` is recorded as 100% (CTCAE v4.03, measured: all adverse events; pancreatic ductal adenocarcinoma patients; oral, dose not given, together with: pembrolizumab IV every 3 weeks).
